Results of several laboratories.
Numbered parts are unrelated; each lists some results of a single study. Positions count from the first letter of the parent shown.

Block 1
Target: Histone acetyltransferase KAT6A, both winged helices, GST fusion (KAT6A, Homo sapiens, UniProt Q92794, residues 1-181)
Technique: protein binding microarray
Molecule type: double-stranded DNA, one strand shown
Sample: in vitro
Concentration: not given
Notes: 8-mer, flanks averaged, mean of 2 arrays, mostly near background
Reference: not given
Reading: higher = stronger binding
Endpoint: E-score
Construct (chain): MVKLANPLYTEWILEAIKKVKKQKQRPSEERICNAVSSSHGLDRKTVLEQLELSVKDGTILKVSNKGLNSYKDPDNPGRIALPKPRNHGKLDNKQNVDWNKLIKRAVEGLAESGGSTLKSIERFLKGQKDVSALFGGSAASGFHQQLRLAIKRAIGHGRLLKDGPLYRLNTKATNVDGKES
GCAGGGCA: -0.0988
AAGTTTAA: -0.109
ACTATAGC: 0.0906
CGGAGTCA: 0.158
CCTGTAAG: -0.203
ATCTTTCG: -0.169
AATCTAAG: -0.0681
TCTGAACA: -0.0215
ACCCGTTG: 0.214
AATATATG: 0.0273
AATTTAGG: -0.182
CCTGCCGA: -0.0398
ACCCTCCA: -0.257
CTAGGCAC: -0.153
AAAGAATT: -0.0549
ACCTCAGA: -0.235
TTGACCAA: -0.26
ATAAGAGC: 0.101
ACACCCAT: -0.0542
AGACTGCA: -0.167
AAGAATAT: -0.0832
CGCGCTAC: 0.373
GTATGTGA: 0.0612
GGAGTCGA: -0.0526

Block 2
Target: CCNB3, cyclin fold, Cln2 fusion (human)
Technique: yeast growth competition, sequencing
Sample: yeast
Notes: weak parent motif
Reference: not given
Reading: higher = stronger binding
Endpoint: normalised enrichment score
Parent: INSM1 docking peptide (human); PKAIRKLHFEDEV
A3F: 0.501
L7P: 0.0211
R5M: 0.327
H8L: 0.857
L7T: 0.0292
I4R: 2.31
R5E: -0.0708
D11M: 0.206
K2L: 0.507
A3V: 0.841
R5W: 0.25
R5P: -0.166
K2R: 0.308
K2V: 0.324
L7H: -0.0335
K6P: -0.0332
D11T: -0.156
R5I: -0.299
K6L: 0.657
E10G: 1.06
E12V: 0.509
I4D: -0.252
E10N: 0.385
I4A: 0.235
K2A: 0.344

Block 3
Target: RNA binding protein fox-1 homolog 2, RRM domain, GST-SBP tag (RBFOX2, Homo sapiens, UniProt O43251-10, residues 100-194)
Technique: RNA Bind-n-Seq
Molecule type: RNA
Sample: in vitro
Concentration: 365 nM
Notes: natural RNA segment, single round, ends assumed
Reference: no-protein control
Reading: higher = stronger binding
Endpoint: RBNS enrichment (R)
Construct (chain): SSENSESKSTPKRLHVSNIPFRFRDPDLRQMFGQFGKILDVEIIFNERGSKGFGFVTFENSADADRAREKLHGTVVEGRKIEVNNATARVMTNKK
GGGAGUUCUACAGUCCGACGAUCCAGGUCAGGAGUACAGCUUGUGAAACUCACCAAAAUGAAUAGUUGUUUCGUUACAUUUAGAUGAAAGUUAAACUUUACUGAAUUUCAGUACAUUAGUUUUUACACUAAAAUGGAAUUCUCGGGUGCCAA: 1.4
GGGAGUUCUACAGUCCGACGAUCAAACUGUUCUCAGGACCUUGGGCUCUGGGCAGUCUGUCAGUACCAAGCCUUUAUGCCUAUGAGAACUCCAUAGCUGGGUCUCACCACUAAUAAACAGACCUGCACCUCUGUGGAAUUCUCGGGUGCCAA: 0.311
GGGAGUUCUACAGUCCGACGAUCUCGCCUGCGUUCUUUCUCCUUCUGGUGCUACAGCUCUGAGGGCCUUCACCUUUCUGUCUGAAAUACAACUGUGGCUUUUGCAGUAGAAGACUAUGUUGGUGGUUUCAUUGUGGAAUUCUCGGGUGCCAA: 0.284
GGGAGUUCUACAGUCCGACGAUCGAAUUUGAUGAAGAGCAGUCUUCCUCUGCUGCCCUUUACUAAGCAAAACCUGGAGCAAUUUAAAUAGGCUAAAUGGUUUUGAUUAAAUCUUGAGCUCCGAGUUGGAAGGAUGGAAUUCUCGGGUGCCAA: 0.305
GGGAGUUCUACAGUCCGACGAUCAUUGAUUAUUACUGGCAAAAACGGCCAGGUACAACACCUUUUUCAUACAAGGCCCAGGAGGCUUAGUCCAGUCUGUGCUCCUGGGCUACAAGGACCCAGCCUGAGAUGGUUGGAAUUCUCGGGUGCCAA: 0.567
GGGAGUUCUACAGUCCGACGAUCGCCAUGUGGAGAACAAUGGUAUUAAUCCAUACUGGGGGGAGACUUUCUAUUUCCGGCUCCAGGUACCUGAACUUGCUAUGUUGCGUUUUGUGGUAAAGGAUUAUAGCAGGUGGAAUUCUCGGGUGCCAA: 2.19
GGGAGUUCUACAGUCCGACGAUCGAAGAUCUGUCGAUUCAUCUCCAAUCAUAUGCAUUGACAUACACAGCAAAGAAGAUAUAGGCAGUAAUAUCAACACUGCUAUAUCAUGUGUAGGACAUUUCUUAUCCAUUUGGAAUUCUCGGGUGCCAA: 0.418
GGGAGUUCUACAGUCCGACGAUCUAAGUUUAAUAUCCUAAAAGGAAUGCCAAUUAAGUUUUGUUAACUGUGUCAUCAACUUAUCCUAGUACCUCAGUGUUCAUUCCUGUUACCUGCAUAUCUUCUUAAAAGAAUGGAAUUCUCGGGUGCCAA: 1.08
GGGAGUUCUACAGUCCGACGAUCAGAACAGCUGGAGUUUCUGUUGAUGUGAAGAAGGCAGCUCUUGGCCUCCCACUCCCACACUUCUUUGCCUAUAAAUCUUCCUAGCAGCAAUUUGAGCUACCUGAGGAGGAUGGAAUUCUCGGGUGCCAA: 1.09
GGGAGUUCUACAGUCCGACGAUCCCUUAGUUCUCAUAGAAAUUGUGGACCAAUAGGAUAUGUGCUGUGUAUAACUUUCUUUUUAAACUGUAAGUAAAGGGUCUUGCAGCUUUGUGCUUGUGUUAUCUUAGCAUUGGAAUUCUCGGGUGCCAA: 0.809
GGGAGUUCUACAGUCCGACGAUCUUAAAAUUACUGCCUAGAACUUUGAGAAGAGAAAAAUUCAGGGAUAAGUUGAAAGGCACUGGAACUGUUCAUGUCCAUACCAGACCGGUAAAUUAUAAGAUCCAGAUGUUUGGAAUUCUCGGGUGCCAA: 0.473
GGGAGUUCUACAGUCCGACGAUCAUGUGGCAGUUAAACACUACCUUGAUCAUUCUCUCCUCUUUCCUCGAGGAACUCCUGGAGGGUUUGAGCGUCUGGAAACUCUCUGCUCUGACCCGAGGAAGCACCCUCCUUGGAAUUCUCGGGUGCCAA: 0.203

Block 4
Target: Ras GTPase-activating protein-binding protein 1, full length (G3BP1, Homo sapiens, UniProt Q13283)
UniProt Q13283, sequence (whole entry, looked up): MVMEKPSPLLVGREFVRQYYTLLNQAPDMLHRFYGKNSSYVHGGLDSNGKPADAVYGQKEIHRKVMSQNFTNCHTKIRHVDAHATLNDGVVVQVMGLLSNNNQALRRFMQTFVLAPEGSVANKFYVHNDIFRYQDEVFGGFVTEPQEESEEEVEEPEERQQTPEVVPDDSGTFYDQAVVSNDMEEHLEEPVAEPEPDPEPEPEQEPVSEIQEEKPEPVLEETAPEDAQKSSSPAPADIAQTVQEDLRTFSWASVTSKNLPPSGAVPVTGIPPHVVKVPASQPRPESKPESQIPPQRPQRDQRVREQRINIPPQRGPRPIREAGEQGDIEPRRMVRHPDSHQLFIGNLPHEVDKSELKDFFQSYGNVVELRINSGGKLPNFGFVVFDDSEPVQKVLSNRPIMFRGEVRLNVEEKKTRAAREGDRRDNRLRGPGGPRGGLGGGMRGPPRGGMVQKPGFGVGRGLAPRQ
Technique: RNA Bind-n-Seq
Molecule type: RNA
Sample: in vitro
Concentration: 200 nM
Notes: whole 134-nt RNA, ends assumed
With: 150 mM KCl
Reference: input library
Reading: higher = stronger binding
Endpoint: log2 enrichment
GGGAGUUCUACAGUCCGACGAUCACCAUGCAGGUGGGCAUCUUUGGGAAGUGGGGCAAGGGGGGGAUAGGGAGGGGGGUAACACUUUGGGAACAGAUGGUCCCAGGUCGUUUCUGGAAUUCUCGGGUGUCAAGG: 1.02
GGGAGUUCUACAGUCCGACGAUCCAAGUCCUGUGCUACACAUCGUAUGUACCGAAUCGGGGAAAGGAAAGGGGAAAGGAAAGUAUUAUGUUACGCCGUUCGGAUCUGCACUUCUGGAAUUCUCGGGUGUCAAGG: -0.309
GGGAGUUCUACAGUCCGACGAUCGUCCUGUGCUACACAUCGUAUGUACCGAAUCAAACCCCCAAACCCAAACCCCCCCAAAAAAGUAUUAUGUUACGCCGUUCGGAUCUGCACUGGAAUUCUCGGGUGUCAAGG: -0.294
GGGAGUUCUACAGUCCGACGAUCCACAGACAACACGCACCCACACAGACACAGAGGGAAGGGGUUGGGAUGGGGUCAGGGUGCACAGCAGGGCGGGGUAGGACCCCAGCCCCUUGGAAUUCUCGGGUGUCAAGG: 2.06
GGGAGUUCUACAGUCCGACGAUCAAGUCCUGUGCUACACAUCGUAUGUACCGAAUCGGGUUUUGGUUUUGGGUUUUGGGAAAGUAUUAUGUUACGCCGUUCGGAUCUGCACUUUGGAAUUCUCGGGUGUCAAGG: -1.03
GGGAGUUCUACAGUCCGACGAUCUCAAGUCCUGUGCUACACAUCGUAUGUACCGAAUCGGGAAGGGGAAGGGAAGGGGAAAGUAUUAUGUUACGCCGUUCGGAUCUGCACUUCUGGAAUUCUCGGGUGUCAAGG: 1.02
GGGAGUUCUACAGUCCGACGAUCACCAUGCAGGUGGGCAUCUUUUGGAAGUGGGGCAAGGGGGGGAUAGGGAGGGGGGUAACACUUUGGGAACAGGUGGUCCCAGGUCGUUUCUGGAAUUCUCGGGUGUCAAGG: 1.27
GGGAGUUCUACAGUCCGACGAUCUCAAGUCCUGUGCUACACAUCGUAUGUACCGAAUCGGUUUGGGUUUGGUUUGGGGAAAGUAUUAUGUUACGCCGUUCGGAUCUGCACUUCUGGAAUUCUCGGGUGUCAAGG: -0.703
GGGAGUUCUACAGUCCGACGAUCAAGUCCUGUGCUACACAUCGUAUGUACCGAAUCGGGUUUUGGGGUUUUGGUUUUGGGAAAGUAUUAUGUUACGCCGUUCGGAUCUGCACUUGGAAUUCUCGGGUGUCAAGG: -0.82
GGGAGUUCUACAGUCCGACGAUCCUCAAGUCCUGUGCUACACAUCGUAUGUACCGAAUCGGGGUUGGUUGGGUUGGAAAGUAUUAUGUUACGCCGUUCGGAUCUGCACUUCCAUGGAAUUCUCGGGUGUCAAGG: 0.108
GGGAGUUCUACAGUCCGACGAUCCCUGUGCUACACAUCGUAUGUACCGAAUCGGGCCCCCCCGGGCCCCCCCGGGCCCCCCCGGAAAGUAUUAUGUUACGCCGUUCGGAUCUGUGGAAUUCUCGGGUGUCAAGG: -0.369
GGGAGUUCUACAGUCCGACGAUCUCCUGUGCUACACAUCGUAUGUACCGAAUCGGGGUUUUUGGGGUUUGGGGUUUUUGGGGAAAGUAUUAUGUUACGCCGUUCGGAUCUGCAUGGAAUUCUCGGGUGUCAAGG: 0.86
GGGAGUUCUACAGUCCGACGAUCAGUCCUGUGCUACACAUCGUAUGUACCGAAUCGGGGUUUUGGUUUUGGGGUUUUGGGAAAGUAUUAUGUUACGCCGUUCGGAUCUGCACUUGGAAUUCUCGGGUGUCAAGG: -0.378
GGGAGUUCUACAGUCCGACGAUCCCUCAAGUCCUGUGCUACACAUCGUAUGUACCGAAUCGGGGCGGGGCGGCGGAAAGUAUUAUGUUACGCCGUUCGGAUCUGCACUUCCAGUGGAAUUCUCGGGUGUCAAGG: -0.06

Block 5
Target: Interferon regulatory factor 5, full length, phosphomimetic (IRF5, Homo sapiens, UniProt Q13568-2, residues 1-514, K96S/S451D/S453D/S456D/S462D)
Technique: protein-binding microarray
Molecule type: double-stranded DNA, one strand shown
Sample: in vitro
Concentration: 250 nM
Notes: 60-bp whole probe
With: salmon DNA 0.4 mg/ml
Reference: random background probes
Reading: higher = stronger binding
Endpoint: log fluorescence
All sequences stand within: GCCTAGCAC … GTCTTGATTCGCTTGACGCTGCTG
TTAAGACTGGGGTTTCGGTTAGTGCTA: 7.37 z-score
TTAGGACTTGACTATCGGTTAGTGCTA: 6.73 z-score
TTAGAACGGGGGTATCGATTAGTGCTA: 3.66 z-score
TCACCTTGATGTCTGGGACTGTGCTAG: -0.305 z-score
TTAGATCTCAGTATCGGTTAGTGCTAG: 7.35 z-score
TCATCTCCCCCATCTTGTACTGTGCTA: -0.0905 z-score
GACGGTTTCGACTTTCTGGACGTGCTA: 6.32 z-score
GACGGTATCGGTTTCCGGACGTGCTAG: 7 z-score
TTAGGACTGTGTTTCGGTTAGTGCTAG: 8.07 z-score
TTAGGACTGCTTCTGCTTTAGTGCTAG: -0.487 z-score
TTAGAATTCAGACTGGATTAGTGCTAG: -0.147 z-score
GTCTCTATCAAAAATACAAAAGTGCTA: 1.18 z-score
TTAGGTTTCGACTATCGGTTCGTGCTA: 9.15 z-score
AACGATATCAGTATCGAGACGTGCTAG: 4.03 z-score
TCAGTTTGCCTCCTTCAGACTGTGCTA: 0.0549 z-score
TTAGGTTCCCTTTTACTTTAGTGCTAG: 0.805 z-score
GACGATCTCATTCTCGAGACGTGCTAG: 0.0285 z-score
TTAGGTTCCCTTTTTCTTTAGTGCTAG: 0.662 z-score
GACGATATCGGGTATCGAGCCGTGCTA: 2.26 z-score
TTAGGTACCGGTTTCGGTTAGTGCTAG: 8.77 z-score
TTAGGTTTCGGGTTCGGTTAGTGCTAG: 8.21 z-score
TTAGGTATCGGTCTCGGCTAGTGCTAG: 6.48 z-score
TCACTCGTGTTTTTCTCACTGTGCTAG: 0.644 z-score
TCCTCTTTCACTGCTCCCCAAGTGCTA: 3.8 z-score
